Results pooled from the literature.
Numbered parts are unrelated; each lists some results of a single study. Numbers after ± are the reported error.
UniProt P07948, sequence (whole entry, looked up): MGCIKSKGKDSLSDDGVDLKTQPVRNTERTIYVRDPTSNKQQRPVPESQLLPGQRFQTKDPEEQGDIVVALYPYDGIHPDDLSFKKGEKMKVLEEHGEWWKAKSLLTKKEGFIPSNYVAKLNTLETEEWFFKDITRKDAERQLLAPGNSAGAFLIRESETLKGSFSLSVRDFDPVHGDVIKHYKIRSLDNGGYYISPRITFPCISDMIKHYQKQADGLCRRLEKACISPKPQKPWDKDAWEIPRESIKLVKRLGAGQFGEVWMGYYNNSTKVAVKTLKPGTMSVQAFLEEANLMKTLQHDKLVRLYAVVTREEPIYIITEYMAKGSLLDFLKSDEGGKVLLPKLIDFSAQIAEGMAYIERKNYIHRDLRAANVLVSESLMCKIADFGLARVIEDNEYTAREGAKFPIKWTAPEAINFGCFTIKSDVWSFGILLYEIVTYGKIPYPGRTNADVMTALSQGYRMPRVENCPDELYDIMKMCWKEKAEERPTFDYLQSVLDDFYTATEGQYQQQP
UniProt Q59H18, sequence (whole entry, looked up): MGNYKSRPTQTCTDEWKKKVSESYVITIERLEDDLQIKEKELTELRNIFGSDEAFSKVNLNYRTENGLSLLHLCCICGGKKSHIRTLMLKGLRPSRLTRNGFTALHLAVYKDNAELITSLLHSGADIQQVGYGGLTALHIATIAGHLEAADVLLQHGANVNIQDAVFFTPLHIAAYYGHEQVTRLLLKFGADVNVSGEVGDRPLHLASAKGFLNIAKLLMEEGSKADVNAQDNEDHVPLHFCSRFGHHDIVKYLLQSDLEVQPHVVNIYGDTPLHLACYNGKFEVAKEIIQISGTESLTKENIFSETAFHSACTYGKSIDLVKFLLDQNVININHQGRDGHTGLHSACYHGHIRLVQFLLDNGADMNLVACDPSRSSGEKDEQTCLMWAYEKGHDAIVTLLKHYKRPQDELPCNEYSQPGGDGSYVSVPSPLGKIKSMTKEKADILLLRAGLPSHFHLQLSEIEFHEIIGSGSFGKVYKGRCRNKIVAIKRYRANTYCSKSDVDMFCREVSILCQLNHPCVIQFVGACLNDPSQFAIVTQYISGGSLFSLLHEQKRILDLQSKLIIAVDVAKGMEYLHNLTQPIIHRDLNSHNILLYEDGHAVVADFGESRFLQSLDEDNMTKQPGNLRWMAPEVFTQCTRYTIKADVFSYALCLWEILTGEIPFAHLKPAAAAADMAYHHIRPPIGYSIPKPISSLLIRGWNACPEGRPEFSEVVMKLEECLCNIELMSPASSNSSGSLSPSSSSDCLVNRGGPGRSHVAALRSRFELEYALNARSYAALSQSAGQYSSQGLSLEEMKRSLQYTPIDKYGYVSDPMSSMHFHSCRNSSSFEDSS
UniProt P22455, sequence (whole entry, looked up): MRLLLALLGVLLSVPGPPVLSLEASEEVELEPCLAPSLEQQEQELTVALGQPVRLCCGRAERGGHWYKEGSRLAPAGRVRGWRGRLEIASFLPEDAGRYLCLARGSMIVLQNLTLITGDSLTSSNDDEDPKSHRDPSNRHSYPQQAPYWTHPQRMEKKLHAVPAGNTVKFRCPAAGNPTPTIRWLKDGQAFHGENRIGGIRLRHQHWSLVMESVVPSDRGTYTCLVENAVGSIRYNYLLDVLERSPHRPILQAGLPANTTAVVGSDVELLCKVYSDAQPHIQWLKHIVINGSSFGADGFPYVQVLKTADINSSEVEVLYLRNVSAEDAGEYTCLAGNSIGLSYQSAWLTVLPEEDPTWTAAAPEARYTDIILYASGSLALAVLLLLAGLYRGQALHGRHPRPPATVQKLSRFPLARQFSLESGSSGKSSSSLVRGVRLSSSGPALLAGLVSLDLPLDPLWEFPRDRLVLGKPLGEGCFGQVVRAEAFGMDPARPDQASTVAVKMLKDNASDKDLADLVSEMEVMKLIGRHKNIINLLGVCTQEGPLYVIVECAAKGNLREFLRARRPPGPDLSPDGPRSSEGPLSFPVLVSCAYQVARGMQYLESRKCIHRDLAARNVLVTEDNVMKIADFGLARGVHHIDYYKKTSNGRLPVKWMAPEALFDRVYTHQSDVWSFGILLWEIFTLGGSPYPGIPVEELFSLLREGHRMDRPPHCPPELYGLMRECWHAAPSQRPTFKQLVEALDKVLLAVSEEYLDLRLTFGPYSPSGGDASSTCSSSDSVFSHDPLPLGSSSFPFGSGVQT
UniProt O00141, sequence (whole entry, looked up): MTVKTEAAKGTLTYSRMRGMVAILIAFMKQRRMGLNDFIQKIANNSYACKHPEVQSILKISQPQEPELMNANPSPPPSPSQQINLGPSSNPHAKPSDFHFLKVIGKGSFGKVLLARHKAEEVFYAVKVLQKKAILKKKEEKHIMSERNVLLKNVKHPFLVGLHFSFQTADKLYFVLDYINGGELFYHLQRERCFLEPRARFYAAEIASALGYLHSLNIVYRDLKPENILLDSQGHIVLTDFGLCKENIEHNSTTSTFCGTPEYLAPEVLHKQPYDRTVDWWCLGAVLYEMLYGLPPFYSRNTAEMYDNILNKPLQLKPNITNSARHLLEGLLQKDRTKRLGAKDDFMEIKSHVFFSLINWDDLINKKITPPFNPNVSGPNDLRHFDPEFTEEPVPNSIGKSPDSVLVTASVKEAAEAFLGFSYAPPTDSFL
UniProt Q15418, sequence (whole entry, looked up): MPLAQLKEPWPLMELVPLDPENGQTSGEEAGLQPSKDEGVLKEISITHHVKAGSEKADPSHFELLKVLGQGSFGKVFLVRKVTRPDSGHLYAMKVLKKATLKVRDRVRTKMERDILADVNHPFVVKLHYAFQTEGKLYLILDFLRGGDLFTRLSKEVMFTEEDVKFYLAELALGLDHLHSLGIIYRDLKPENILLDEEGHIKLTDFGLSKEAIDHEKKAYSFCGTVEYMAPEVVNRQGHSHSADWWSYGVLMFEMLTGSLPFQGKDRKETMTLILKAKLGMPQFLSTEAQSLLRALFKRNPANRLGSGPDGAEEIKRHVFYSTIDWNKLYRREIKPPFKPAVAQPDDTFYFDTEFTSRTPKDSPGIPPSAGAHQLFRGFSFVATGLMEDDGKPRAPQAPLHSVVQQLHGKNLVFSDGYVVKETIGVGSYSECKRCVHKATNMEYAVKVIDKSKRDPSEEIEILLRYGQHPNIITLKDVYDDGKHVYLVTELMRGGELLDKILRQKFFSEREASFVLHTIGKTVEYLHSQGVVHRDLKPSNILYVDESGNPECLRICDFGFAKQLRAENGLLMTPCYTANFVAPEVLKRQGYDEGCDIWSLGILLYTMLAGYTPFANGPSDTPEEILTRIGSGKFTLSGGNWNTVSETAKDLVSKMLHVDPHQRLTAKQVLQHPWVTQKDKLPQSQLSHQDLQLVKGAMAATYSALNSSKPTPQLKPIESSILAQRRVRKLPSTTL
UniProt P43250, sequence (whole entry, looked up): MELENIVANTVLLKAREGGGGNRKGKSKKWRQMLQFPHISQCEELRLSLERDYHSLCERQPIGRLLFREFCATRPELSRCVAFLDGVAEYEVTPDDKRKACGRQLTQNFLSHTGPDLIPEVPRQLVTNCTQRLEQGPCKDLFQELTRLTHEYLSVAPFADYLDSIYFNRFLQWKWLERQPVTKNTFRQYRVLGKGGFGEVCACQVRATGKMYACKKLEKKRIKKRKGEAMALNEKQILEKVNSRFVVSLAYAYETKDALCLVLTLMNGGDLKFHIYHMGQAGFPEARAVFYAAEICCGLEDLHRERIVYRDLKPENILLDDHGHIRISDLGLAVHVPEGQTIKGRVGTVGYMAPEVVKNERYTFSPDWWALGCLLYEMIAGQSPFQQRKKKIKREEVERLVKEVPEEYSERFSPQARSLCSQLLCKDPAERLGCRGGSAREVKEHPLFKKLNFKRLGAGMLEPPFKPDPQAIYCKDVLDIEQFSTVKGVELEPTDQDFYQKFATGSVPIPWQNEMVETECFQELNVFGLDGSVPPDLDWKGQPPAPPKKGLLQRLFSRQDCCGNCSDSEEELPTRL
UniProt Q14012, sequence (whole entry, looked up): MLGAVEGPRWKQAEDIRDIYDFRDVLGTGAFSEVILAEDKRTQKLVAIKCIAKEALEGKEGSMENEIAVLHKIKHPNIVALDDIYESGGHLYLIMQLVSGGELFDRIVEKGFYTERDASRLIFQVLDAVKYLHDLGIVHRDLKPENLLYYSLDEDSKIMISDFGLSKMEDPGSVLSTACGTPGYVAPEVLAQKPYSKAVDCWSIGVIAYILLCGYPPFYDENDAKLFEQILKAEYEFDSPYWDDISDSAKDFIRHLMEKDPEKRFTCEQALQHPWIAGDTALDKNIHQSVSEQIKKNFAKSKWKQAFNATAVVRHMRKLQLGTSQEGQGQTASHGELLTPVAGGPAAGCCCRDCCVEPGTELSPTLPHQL

Set 1 — Compound: COc1ccc(-c2cnc3c(-c4ccsc4)cnn3c2)cc1; observed: enzyme activity; action: inhibitor; tested at: 0.5 µM; relative to: control; endpoint: remaining activity
target = CSK (Homo sapiens, UniProt P41240); value = 95.3%
target = SRPK3 (Homo sapiens, UniProt Q9UPE1); value = 94.1%
target = CSF1R (Homo sapiens, UniProt P07333); value = 53.6%
target = GSK3A (Homo sapiens, UniProt P49840); value = 92.5%
target = PRKCE (Homo sapiens, UniProt Q02156); value = 103%
target = PRKCG (Homo sapiens, UniProt P05129); value = 112%
target = Aurora kinase C (AURKC, Homo sapiens, UniProt Q9UQB9); value = 75.3%
target = BMX (Homo sapiens, UniProt P51813); value = 90.6%
target = GRK2 (Homo sapiens, UniProt P25098); value = 100%
target = FGFR4 (Homo sapiens, UniProt P22455); value = 89.2%
target = PIM2 (Homo sapiens, UniProt Q9P1W9); value = 105%
target = PAK2 (Homo sapiens, UniProt Q13177); value = 79.1%
target = EPHA7 (Homo sapiens, UniProt Q15375); value = 91.1%
target = NUAK1 (Homo sapiens, UniProt O60285); value = 77.9%
target = SGK1 (Homo sapiens, UniProt O00141); value = 81.8%
target = FLT3 (Homo sapiens, UniProt P36888); value = 11.1%
target = EPHB2 (Homo sapiens, UniProt P29323); value = 80.5%
target = RPS6KB1 (Homo sapiens, UniProt P23443); value = 92.1%
target = GRK6 (Homo sapiens, UniProt P43250); value = 99.9%
target = MYLK (Homo sapiens, UniProt Q15746); value = 102%
target = RPS6KA1 (Homo sapiens, UniProt Q15418); value = 85.7%

Set 2 — observed: enzyme activity; action: inhibitor; tested at: 10 µM; endpoint: inhibition
Target: Calcium/calmodulin-dependent protein kinase type II subunit alpha (CAMK2A, Homo sapiens, UniProt Q9UQM7)
UniProt Q9UQM7, sequence (whole entry, looked up): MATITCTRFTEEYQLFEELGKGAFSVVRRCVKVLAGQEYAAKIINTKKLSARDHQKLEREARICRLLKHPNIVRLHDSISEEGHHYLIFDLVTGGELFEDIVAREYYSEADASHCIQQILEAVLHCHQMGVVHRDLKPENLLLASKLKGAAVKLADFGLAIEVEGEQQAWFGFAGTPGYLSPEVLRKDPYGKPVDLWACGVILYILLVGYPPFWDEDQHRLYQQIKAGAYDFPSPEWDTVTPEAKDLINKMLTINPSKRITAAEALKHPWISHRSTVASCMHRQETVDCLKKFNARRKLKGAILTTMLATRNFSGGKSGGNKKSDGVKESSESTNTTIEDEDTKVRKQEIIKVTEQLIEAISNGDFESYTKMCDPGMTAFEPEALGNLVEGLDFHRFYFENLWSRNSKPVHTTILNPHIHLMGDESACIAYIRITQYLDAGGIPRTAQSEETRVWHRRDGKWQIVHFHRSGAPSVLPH
SMILES = COc1ccc2c(c1OC)CN(C)CCc1cc3c(cc1C(=O)C2)OCO3; value = -6%
SMILES = O=Cc1cccc(O)c1; value = 12%
SMILES = O=C1CCC(N2C(=O)c3ccccc3C2=O)C(=O)N1 (stereo not drawn); value = -3%
SMILES = Cc1cc(=O)oc2cc(O)c(O)cc12; value = -8%
SMILES = Cc1ccc(=O)n(-c2ccccc2)c1; value = -5%
SMILES = C/C(=C\c1csc(C)n1)[C@@H]1C[C@@H]2O[C@]2(C)CCC[C@H](C)[C@H](O)[C@@H](C)C(=O)C(C)(C)[C@@H](O)CC(=O)N1; value = -9%
SMILES = CC(=O)CCc1ccc(O[C@@H]2O[C@H](CO)[C@@H](O)[C@H](O)[C@H]2O)cc1; value = -47%
SMILES = CC(=O)N[C@@H](Cc1ccccc1)C(=O)O; value = -1%
SMILES = NCC(=O)N[C@@H](Cc1ccc(O)cc1)C(=O)O; value = -13%
SMILES = O=C1c2ccccc2C(=O)c2c(O)cccc21; value = -30%

Set 3 — tested at: 1 µM; endpoint: remaining binding
SMILES: C[C@@H]1CN(c2cc(-c3nn(C)c4ccc(OC5(C)CC5)cc34)ncn2)C[C@H](C)O1
target = PIK3CA (Homo sapiens, UniProt P42336, Q546K); observed = binding; technique = competition with immobilised ligand; value = 39%
target = PIP4K2B (Homo sapiens, UniProt P78356); observed = cell-free assay; technique = competition with immobilised ligand; value = 84%
target = CSNK1E (Homo sapiens, UniProt P49674); observed = cell-free assay; technique = competition with immobilised ligand; value = 100%
target = MKNK1 (Homo sapiens, UniProt Q9BUB5); observed = cell-free assay; technique = competition with immobilised ligand; value = 79%
target = Tyrosine-protein kinase ABL1, phosphorylated (ABL1, Homo sapiens, UniProt P00519); observed = cell-free assay; technique = competition with immobilised ligand; value = 79%
target = FLT3 (Homo sapiens, UniProt P36888, D835Y); observed = cell-free assay; technique = competition with immobilised ligand; value = 100%
target = KDR (Homo sapiens, UniProt P35968); observed = cell-free assay; technique = competition with immobilised ligand; value = 75%
target = PDGFRB (Homo sapiens, UniProt P09619); observed = cell-free assay; technique = competition with immobilised ligand; value = 100%
target = NEK6 (Homo sapiens, UniProt Q9HC98); observed = cell-free assay; technique = competition with immobilised ligand; value = 100%
target = WNK4 (Homo sapiens, UniProt Q96J92); observed = cell-free assay; technique = competition with immobilised ligand; value = 60%
target = MAPKAPK2 (Homo sapiens, UniProt P49137); observed = cell-free assay; technique = competition with immobilised ligand; value = 93%
target = TNNI3K (Homo sapiens, UniProt Q59H18); observed = cell-free assay; technique = competition with immobilised ligand; value = 71%
target = STK39 (Homo sapiens, UniProt Q9UEW8); observed = cell-free assay; technique = competition with immobilised ligand; value = 70%
target = CDK2 (Homo sapiens, UniProt P24941); observed = cell-free assay; technique = competition with immobilised ligand; value = 73%
target = HIPK3 (Homo sapiens, UniProt Q9H422); observed = cell-free assay; technique = competition with immobilised ligand; value = 91%
target = RIPK4 (Homo sapiens, UniProt P57078); observed = cell-free assay; technique = competition with immobilised ligand; value = 85%
target = FLT3 (Homo sapiens, UniProt P36888); observed = cell-free assay; technique = competition with immobilised ligand; value = 96%
target = CAMK1 (Homo sapiens, UniProt Q14012); observed = cell-free assay; technique = competition with immobilised ligand; value = 100%
target = LYN (Homo sapiens, UniProt P07948); observed = cell-free assay; technique = competition with immobilised ligand; value = 82%
target = CLK2 (Homo sapiens, UniProt P49760); observed = cell-free assay; technique = competition with immobilised ligand; value = 81%
target = SIK1 (Homo sapiens, UniProt P57059); technique = competition binding; value = 96%
target = PIK3C3 (Homo sapiens, UniProt Q8NEB9); observed = cell-free assay; technique = competition with immobilised ligand; value = 86%
target = WEE2 (Homo sapiens, UniProt P0C1S8); observed = cell-free assay; technique = competition with immobilised ligand; value = 96%
target = DSTYK (Homo sapiens, UniProt Q6XUX3); observed = cell-free assay; technique = competition with immobilised ligand; value = 67%
target = CAMK4 (Homo sapiens, UniProt Q16566); observed = cell-free assay; technique = competition with immobilised ligand; value = 67%

Set 4 — technique: ITC; tested at: concentration not given; endpoint: binding stoichiometry
Target: Bromodomain-containing protein 4, BD1 (BRD4, Homo sapiens, UniProt O60885)
Structure (SMILES) = Cc1cnc(Nc2ccc(OCCN3CCCC3)cc2)nc1Nc1cccc(S(=O)(=O)NC(C)(C)C)c1; value = 1.03 ± 0.04
Structure (SMILES) = CC(C)CCN1c2nc(Nc3cc(F)c(O)c(F)c3)ncc2N(C)C(=O)C1C (stereo not drawn); value = 0.965 ± 0.02
Structure (SMILES) = Cc1cnc(Nc2ccc(N3CCN(C)CC3)cc2)nc1Nc1cccc(S(=O)(=O)NC(C)(C)C)c1; value = 1.16 ± 0.01
Structure (SMILES) = CC[C@@H]1C(=O)N(C)c2cnc(Nc3ccc(C(=O)N[C@H]4CC[C@H](N5CCN(CC6CC6)CC5)CC4)cc3OC)nc2N1C(C)C; value = 1.02 ± 0.04

For quick reference, copied from above (set 4):
Structure (SMILES) = CC[C@@H]1C(=O)N(C)c2cnc(Nc3ccc(C(=O)N[C@H]4CC[C@H](N5CCN(CC6CC6)CC5)CC4)cc3OC)nc2N1C(C)C; value = 1.02 ± 0.04
Structure (SMILES) = Cc1cnc(Nc2ccc(N3CCN(C)CC3)cc2)nc1Nc1cccc(S(=O)(=O)NC(C)(C)C)c1; value = 1.16 ± 0.01
Structure (SMILES) = CC(C)CCN1c2nc(Nc3cc(F)c(O)c(F)c3)ncc2N(C)C(=O)C1C (stereo not drawn); value = 0.965 ± 0.02
Structure (SMILES) = Cc1cnc(Nc2ccc(OCCN3CCCC3)cc2)nc1Nc1cccc(S(=O)(=O)NC(C)(C)C)c1; value = 1.03 ± 0.04
